Experimental data gathered from unrelated publications.
Protocols differ between the studies behind these lines.
BRD9: Bromodomain-containing protein 9 (BRD9, Homo sapiens, UniProt Q9H8M2)
Sequence of UniProt Q9H8M2 (whole entry, looked up): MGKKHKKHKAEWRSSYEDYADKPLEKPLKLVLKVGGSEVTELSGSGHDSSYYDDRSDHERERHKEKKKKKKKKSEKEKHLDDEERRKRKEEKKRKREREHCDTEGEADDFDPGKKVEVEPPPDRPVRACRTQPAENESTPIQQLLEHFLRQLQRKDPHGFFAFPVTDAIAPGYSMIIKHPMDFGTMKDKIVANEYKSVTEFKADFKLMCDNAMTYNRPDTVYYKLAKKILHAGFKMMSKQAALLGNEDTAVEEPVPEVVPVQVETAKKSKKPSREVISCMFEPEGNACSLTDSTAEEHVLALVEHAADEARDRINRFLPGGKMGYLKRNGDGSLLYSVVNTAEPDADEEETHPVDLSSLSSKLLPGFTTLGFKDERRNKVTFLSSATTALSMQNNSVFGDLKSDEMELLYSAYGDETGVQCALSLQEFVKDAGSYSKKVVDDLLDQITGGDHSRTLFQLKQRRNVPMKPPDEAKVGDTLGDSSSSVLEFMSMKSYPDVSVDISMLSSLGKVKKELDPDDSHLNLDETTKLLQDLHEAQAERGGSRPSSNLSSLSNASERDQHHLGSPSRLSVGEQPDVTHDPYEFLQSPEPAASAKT
D14: D14 (Arabidopsis thaliana, UniProt Q9SQR3)
Sequence of UniProt Q9SQR3 (whole entry, looked up): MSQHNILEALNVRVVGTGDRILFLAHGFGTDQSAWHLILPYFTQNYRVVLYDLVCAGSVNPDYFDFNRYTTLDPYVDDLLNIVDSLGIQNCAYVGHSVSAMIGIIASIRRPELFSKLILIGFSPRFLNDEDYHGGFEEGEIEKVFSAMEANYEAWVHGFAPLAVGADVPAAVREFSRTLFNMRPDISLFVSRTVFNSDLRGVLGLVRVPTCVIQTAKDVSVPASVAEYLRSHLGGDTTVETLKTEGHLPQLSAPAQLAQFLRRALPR
Fibroblast growth factor 14: Fibroblast growth factor 14 (Homo sapiens, UniProt Q92915)
Sequence of UniProt Q92915 (whole entry, looked up): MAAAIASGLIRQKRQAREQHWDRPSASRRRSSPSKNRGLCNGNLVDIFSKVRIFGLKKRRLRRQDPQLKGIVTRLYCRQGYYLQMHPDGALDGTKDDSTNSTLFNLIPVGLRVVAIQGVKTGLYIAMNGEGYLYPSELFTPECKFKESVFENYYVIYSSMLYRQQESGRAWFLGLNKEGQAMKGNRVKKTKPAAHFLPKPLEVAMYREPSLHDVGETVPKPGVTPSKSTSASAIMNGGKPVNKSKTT
Sequence of UniProt Q96KB5 (whole entry, unmodified, looked up): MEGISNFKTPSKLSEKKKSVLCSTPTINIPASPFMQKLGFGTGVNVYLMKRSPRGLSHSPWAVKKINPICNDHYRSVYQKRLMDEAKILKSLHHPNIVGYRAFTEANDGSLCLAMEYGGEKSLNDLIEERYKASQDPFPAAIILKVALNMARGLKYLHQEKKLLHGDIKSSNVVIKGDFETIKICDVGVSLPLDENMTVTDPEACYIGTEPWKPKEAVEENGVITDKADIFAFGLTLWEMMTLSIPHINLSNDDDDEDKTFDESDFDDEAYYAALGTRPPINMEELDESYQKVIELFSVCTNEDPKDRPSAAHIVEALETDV
Sequence of UniProt Q16584 (whole entry, looked up): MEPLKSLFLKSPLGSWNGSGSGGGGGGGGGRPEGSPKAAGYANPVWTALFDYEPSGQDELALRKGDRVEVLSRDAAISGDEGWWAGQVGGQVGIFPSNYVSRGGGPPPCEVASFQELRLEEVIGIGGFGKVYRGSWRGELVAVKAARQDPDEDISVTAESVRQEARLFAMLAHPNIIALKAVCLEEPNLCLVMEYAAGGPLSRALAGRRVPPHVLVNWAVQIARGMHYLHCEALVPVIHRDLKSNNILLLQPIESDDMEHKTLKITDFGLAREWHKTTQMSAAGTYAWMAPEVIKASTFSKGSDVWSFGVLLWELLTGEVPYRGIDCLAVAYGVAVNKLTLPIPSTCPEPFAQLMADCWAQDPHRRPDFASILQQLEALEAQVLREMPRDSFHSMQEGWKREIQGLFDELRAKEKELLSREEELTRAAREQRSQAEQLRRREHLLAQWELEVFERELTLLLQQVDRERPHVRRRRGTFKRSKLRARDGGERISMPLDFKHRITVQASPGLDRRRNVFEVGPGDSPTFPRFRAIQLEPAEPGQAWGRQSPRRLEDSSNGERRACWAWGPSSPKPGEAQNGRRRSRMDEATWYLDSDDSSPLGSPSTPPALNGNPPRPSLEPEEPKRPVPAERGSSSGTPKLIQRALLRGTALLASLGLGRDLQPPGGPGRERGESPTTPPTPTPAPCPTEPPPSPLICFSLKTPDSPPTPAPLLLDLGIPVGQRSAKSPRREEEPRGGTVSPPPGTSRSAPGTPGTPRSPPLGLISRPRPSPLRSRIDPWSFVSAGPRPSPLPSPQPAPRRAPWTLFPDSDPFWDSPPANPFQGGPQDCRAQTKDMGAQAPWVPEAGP
Sequence of UniProt Q04912 (whole entry, looked up): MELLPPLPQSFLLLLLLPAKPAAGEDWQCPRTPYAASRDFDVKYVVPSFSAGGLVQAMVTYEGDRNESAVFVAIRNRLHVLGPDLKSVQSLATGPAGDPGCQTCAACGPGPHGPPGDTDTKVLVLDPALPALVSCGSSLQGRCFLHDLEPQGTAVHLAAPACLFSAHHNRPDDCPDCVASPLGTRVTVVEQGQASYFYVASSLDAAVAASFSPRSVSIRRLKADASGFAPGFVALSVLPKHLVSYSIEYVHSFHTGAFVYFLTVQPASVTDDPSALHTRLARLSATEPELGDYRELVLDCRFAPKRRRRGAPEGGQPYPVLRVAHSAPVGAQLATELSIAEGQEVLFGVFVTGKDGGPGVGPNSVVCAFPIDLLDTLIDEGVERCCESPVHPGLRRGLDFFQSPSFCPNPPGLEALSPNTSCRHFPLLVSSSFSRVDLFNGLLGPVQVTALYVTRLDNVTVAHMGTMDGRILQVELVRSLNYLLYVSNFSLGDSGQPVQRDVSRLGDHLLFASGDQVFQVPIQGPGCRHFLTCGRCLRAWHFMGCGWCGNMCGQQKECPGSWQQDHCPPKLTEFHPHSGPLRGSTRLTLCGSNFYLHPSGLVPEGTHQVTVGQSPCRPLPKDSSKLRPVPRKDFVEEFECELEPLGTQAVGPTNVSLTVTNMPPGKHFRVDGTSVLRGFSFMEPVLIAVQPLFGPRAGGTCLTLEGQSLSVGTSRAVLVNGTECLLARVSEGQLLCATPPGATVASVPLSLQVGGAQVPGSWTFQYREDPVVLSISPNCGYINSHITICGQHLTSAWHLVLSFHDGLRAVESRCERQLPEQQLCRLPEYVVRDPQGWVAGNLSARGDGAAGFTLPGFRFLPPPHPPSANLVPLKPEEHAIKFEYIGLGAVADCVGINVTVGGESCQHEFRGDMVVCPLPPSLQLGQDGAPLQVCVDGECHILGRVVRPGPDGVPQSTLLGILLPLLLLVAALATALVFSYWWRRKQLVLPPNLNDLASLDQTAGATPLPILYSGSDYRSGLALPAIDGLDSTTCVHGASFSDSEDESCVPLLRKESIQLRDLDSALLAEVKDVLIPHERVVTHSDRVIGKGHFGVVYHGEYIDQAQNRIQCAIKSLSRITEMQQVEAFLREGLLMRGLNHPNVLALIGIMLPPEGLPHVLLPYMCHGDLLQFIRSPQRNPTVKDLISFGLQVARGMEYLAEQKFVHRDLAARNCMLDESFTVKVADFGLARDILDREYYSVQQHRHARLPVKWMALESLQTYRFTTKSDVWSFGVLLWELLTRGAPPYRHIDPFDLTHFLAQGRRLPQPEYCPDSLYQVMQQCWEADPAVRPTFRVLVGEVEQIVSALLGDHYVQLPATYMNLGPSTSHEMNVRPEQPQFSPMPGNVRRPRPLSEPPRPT

| Compound | target | assay | conditions | measurement | value |
| --- | --- | --- | --- | --- | --- |
| CC(=O)c1cc(-c2ccccn2)c2ccccn12 | BRD9 | thermal stability, DSF | 200 µM | ΔTm | 2.5 °C |
| COc1cc(-c2cncc3c2CN(C)Cc2cc(N4CCNCC4)ccc2-3)cc(OC)c1OC | MAP3K11 (Homo sapiens, UniProt Q16584) | enzyme activity, inhibitor | 1 µM | remaining activity | 104% |
| CCCCC(=O)Nc1ccc(-c2ccc3ncn(CCC)c(=O)c3c2)cn1 | EGFR (Homo sapiens, UniProt P00533, L858R/T790M) | binding, competition with immobilised ligand | 0.5 µM | remaining binding | 85% |
| CNC(=O)c1cc(OC)c(-c2cc(C(C)=O)n3ccccc23)cc1OC | BRD9 | thermal stability, DSF | 200 µM | ΔTm | 10 °C |
| Cc1cc2c(cc1N1C(=O)c3cccc4c(Cl)ccc(c34)C1=O)n(C)c(=O)n2C | Peregrin, bromodomain (BRPF1, Homo sapiens, UniProt P55201) | thermal stability, DSF | 10 µM | ΔTm | 1.3 °C |
| CC1=C(/C=C/C(C)=C/C=O)C(C)(C)CCC1 | D14 | thermal stability, DSF | 10 µM | ΔTm | -0.69 °C |
| COc1ccccc1-c1cc(C(C)=O)n2ccccc12 | BRD9 | thermal stability, DSF | 200 µM | ΔTm | 6 °C |
| CC(=O)Nc1ccc(Oc2ccc3c(c2)C(=O)N(c2cc(C)ccc2C)C3=O)cc1 | Fibroblast growth factor 14 | thermal stability | 25 µM | ΔTm | 9.3 °C |
| C=CC(=O)N1CCC(COCC(=O)N2CCN(c3nc(-c4cnc(N)nc4C(F)F)nc(N4CCOC[C@@H]4C)n3)CC2)CC1 | MST1R (Homo sapiens, UniProt Q04912) | binding, competition with immobilised ligand | 1 µM | remaining binding | 100% |
| CC(=O)Oc1ccc2c(=O)c(Oc3ccc(Cl)cc3)c(C(F)(F)F)oc2c1 | Fibroblast growth factor 14 | thermal stability | 25 µM | ΔTm | 0.1 °C |
| CC(=O)/C=C/C=C(C)/C=C/C1=C(C)CC(O)CC1(C)C (stereo in doubt) | D14 | thermal stability, DSF | 10 µM | ΔTm | 2.99 °C |
| CNc1ncc2c(/C=C/C(=O)N3CCC(OC)CC3)nn(Cc3cccc(C(F)(F)F)c3)c2n1 | CDC42BPA (Homo sapiens, UniProt Q5VT25) | enzyme activity, inhibitor, radiometric | 1 µM | remaining activity | 101% |
| Cn1c2c(c3ccc(Cl)c(Cl)c31)C(C#N)C1(CCCCC1)NC2=O (racemic) | PBK (Homo sapiens, UniProt Q96KB5) | thermal stability, DSF | 10 µM | ΔTm | 0.7 °C |

Excerpt of the above:
| Compound | target | assay | conditions | measurement | value |
| --- | --- | --- | --- | --- | --- |
| CNc1ncc2c(/C=C/C(=O)N3CCC(OC)CC3)nn(Cc3cccc(C(F)(F)F)c3)c2n1 | CDC42BPA (Homo sapiens, UniProt Q5VT25) | enzyme activity, inhibitor, radiometric | 1 µM | remaining activity | 101% |
